# Assay results of several laboratories.
# Lines come from different studies, so protocols differ. Several values in a cell are separate wells, animals, samples, runs or records. ± marks the error that the study gave.
# ESR1: Estrogen receptor (ESR1, Homo sapiens, UniProt P03372)
# WD repeat-containing protein 91 WD40 domain, residues 392–747: WD repeat-containing protein 91, WD40 domain, residues 392–747 (Homo sapiens, UniProt A4D1P6)
# Genome polyprotein NS3 helicase domain: Genome polyprotein, NS3 helicase domain (Hepatitis C virus genotype 1b, UniProt Q9WMX2)
# CALM1 Ca2+-bound N-lobe: Calmodulin-1, Ca2+-bound N-lobe (CALM1, Homo sapiens, UniProt P0DP23)
# Glutamate receptor 2: Glutamate receptor 2 (Homo sapiens, UniProt P42262)
SMILES,target,test,system,setting,how to read,quantity,value
OC[C@H]1O[C@@H](Oc2cc3c(O)cc(O)cc3[o+]c2-c2ccc(O)c(O)c2)[C@H](O)[C@@H](O)[C@@H]1O.[Cl-],ESR1,array formation,PRL-HeLa,,relative to: EC50 ERβ over EC50 ERα,selectivity ratio,0.406
N#CC1CCN(C(=O)c2ccc(CCc3ccccc3)cc2)CC1,"WD repeat-containing protein 91 WD40 domain, residues 392–747","binding, SPR single-concentration screen",,45 µM,,SPR response,-3.9 RU and -0.9 RU
NS(=O)(=O)Cc1noc2ccccc12,Genome polyprotein NS3 helicase domain,"DNA binding, inhibitor",hepatitis C virus,"100 µM, together with: Cy5-dT15 DNA",,inhibition,1%
N[C@@H](Cc1c[nH]c2ccccc12)C(=O)O,"N-alpha-acetyltransferase 80 (NAA80, Homo sapiens, UniProt Q93015)","substrate, DTNB",,"2 mM, 30 min, 37 °C, together with: acetyl-CoA 500 µM",,product formation,1.05 µM
CC[C@H](C)[C@H](NC(=O)[C@H](CCCCN)NC(=O)CNC(=O)[C@@H](NC(=O)[C@@H](NC(=O)[C@H](CCSC)NC(=O)[C@H](Cc1c[nH]cn1)NC(=O)CN)[C@@H](C)O)C(C)C)C(=O)N[C@@H](Cc1ccc(O)cc1)C(=O)N[C@@H](C)C(=O)N[C@@H](C)C(=O)N[C@@H](CCSC)C(=O)N[C@@H](CCSC)C(=O)N[C@H](C(=O)N[C@@H](CCSC)C(=O)N[C@@H](CCC(=O)O)C(=O)N[C@@H](C)C(=O)N[C@@H](Cc1ccc(O)cc1)C(=O)N[C@@H](CCCNC(=N)N)C(=O)N[C@@H](CCC(N)=O)C(=O)N[C@@H](CO)C(=O)N[C@@H](CCCCN)C(=O)N[C@@H](C)C(=O)N[C@@H](CCCCN)C(=O)N[C@@H](CCCCN)C(=O)N[C@@H](CC(C)C)C(=O)N[C@@H](CCC(N)=O)C(=O)N[C@@H](C)C(=O)N[C@@H](CCSC)C(=O)N[C@@H](CCCNC(=N)N)C(=O)O)[C@@H](C)CC,CALM1 Ca2+-bound N-lobe,"binding, isothermal titration calorimetry",,"pH 7.4, 15 °C, N-lobe, CaV2.1 IQ domain, together with: Ca2+",,ΔH,-3.9 ± 0.63 kcal/mol
COc1cc(C)c(Sc2cnc(NC(=O)c3ccc(N4CCN(CCCCCCCNC(=O)COc5cccc6c5C(=O)N(C5CCC(=O)NC5=O)C6=O)CC4)cc3)s2)cc1C(=O)N1CCN(C(C)=O)CC1 (centres unmarked),"Tyrosine-protein kinase ITK/TSK (ITK, Homo sapiens, UniProt Q08881)",degrader,"HuT78 xenograft, NSG mouse, tumour","intraperitoneal, 50 mg/kg every 8 h",,degradation,99.2%
N#Cc1cccc2c1CC[C@H]2NC(=O)c1ccc(S(=O)(=O)NCc2ccco2)cc1,"WD repeat-containing protein 91, residues 392–747 (Homo sapiens, UniProt A4D1P6)",SPR dose-response titration,,"concentration not given, 1:1 binding model",,binding,78% and 81%
COc1ccc(F)cc1C(=O)NCc1ccc(-c2nn([C@@H](C)C(F)(F)F)c(N)c2C(N)=O)cc1,"Fibroblast growth factor receptor 2 (FGFR2, Homo sapiens, UniProt P21802)","kinase activity, inhibitor, HotSpot radiometric",,"100 nM, together with: ATP 10 µM",,remaining activity,99.2 ± 0.6%
CC[C@H](C)[C@H](NC(=O)[C@H](CCC(=O)O)NC(=O)[C@H](CCC(=O)O)NC(=O)[C@@H]1CCCN1C(=O)[C@H](CC(=O)O)NC(=O)[C@H](C)NC(=O)[C@H](CCC(N)=O)NC(=O)[C@@H](NC(=O)[C@H](C)NC(=O)[C@@H](NC(=O)[C@H](CO)NC(=O)[C@@H](NC(=O)[C@H](CCCCN)NC(=O)[C@@H](N)Cc1ccc(O)cc1)[C@@H](C)O)C(C)C)[C@@H](C)O)C(=O)N[C@H](C(=O)N[C@H](C(=O)N[C@@H](CC(C)C)C(=O)N[C@@H](CC(=O)O)C(=O)N[C@@H](CC(=O)O)C(=O)N[C@@H](CC(=O)O)C(=O)N[C@@H](CC(=O)O)C(=O)O)C(C)C)[C@@H](C)CC,"Small ubiquitin-related modifier 2, N-terminally truncated (Homo sapiens, UniProt P61956, C48A)","binding, ITC",Tris buffer,"pH 7.4, ΔN-SUMO2",,-TΔS,-10.1 ± 0.1 kcal/mol
CN(C)CC[C@@H](c1ccc(Br)cc1)c1ccccn1,Genome polyprotein NS3 helicase domain,"DNA binding, inhibitor",hepatitis C virus,"100 µM, together with: Cy5-dT15 DNA",,inhibition,0%
C=C1CN(S(=O)(=O)c2ccc(C)cc2)CCCN(Cc2ccccc2)CCCN(S(=O)(=O)c2ccc(C)cc2)C1,"Protein transport protein Sec61 subunit alpha isoform 1 (Homo sapiens, UniProt P61619)",measured: control signal peptide-FLuc reporter,HEK293,"0.37 mM, 6 h",,FLuc/RLuc ratio,1.03
COc1cc(O)c(CC=C(C)C)c2c1C(=O)CC(c1ccc(O)cc1)O2 (centres unmarked),ESR1,array formation,PRL-HeLa,,relative to: EC50 ERβ over EC50 ERα,selectivity ratio,0.932
CC(C)=CCC/C(C)=C/CC/C(C)=C/COP(=O)(O)OP(=O)(O)O,rat protein farnesyltransferase,"substrate, HPLC prenylation",,,,Km,2.5 ± 0.7 µM
CC[C@H](C)[C@H](NC(=O)[C@H](CCSC)NC(=O)[C@H](CCSC)NC(=O)[C@H](C)NC(=O)[C@H](C)NC(=O)[C@H](Cc1ccc(O)cc1)NC(=O)[C@@H](NC(=O)[C@H](CCCCN)NC(=O)CNC(=O)[C@@H](NC(=O)[C@@H](NC(=O)[C@H](CCSC)NC(=O)[C@H](Cc1c[nH]cn1)NC(=O)CN)[C@@H](C)O)C(C)C)[C@@H](C)CC)C(=O)N[C@@H](C)C(=O)N[C@@H](CCC(=O)O)C(=O)N[C@@H](Cc1ccc(O)cc1)C(=O)N[C@@H](Cc1ccc(O)cc1)C(=O)N[C@@H](CCCNC(=N)N)C(=O)N[C@@H](CCC(N)=O)C(=O)N[C@@H](CO)C(=O)N[C@@H](CCCCN)C(=O)N[C@@H](C)C(=O)N[C@@H](CCCCN)C(=O)N[C@@H](CCCCN)C(=O)N[C@@H](CC(C)C)C(=O)N[C@@H](CCC(N)=O)C(=O)N[C@@H](C)C(=O)N[C@@H](CCSC)C(=O)N[C@@H](CCCNC(=N)N)C(=O)O,"Calmodulin-1, Ca2+-bound C-lobe (CALM1, Homo sapiens, UniProt P0DP23)","binding, isothermal titration calorimetry",,"pH 7.4, 15 °C, Ca2+-bound C-lobe, together with: CaV2.1 IQ peptide",,stoichiometry,0.93 ± 0.05
CC(=C/C(=O)O)/C=C/C=C(\C)C1C=C2C(C)(C)CCCC2(C)O1 (centres unmarked),"Rhodopsin (RHO, Homo sapiens, UniProt P08100, T17M)","immunostaining, measured: opsin",COS-7 transfected,"0.05 µM, unit not given",relative to: surface over total stained cells,plasma membrane localization,0
N#Cc1cccc2c1CC[C@H]2NC(=O)c1ccc(-c2ccco2)[nH]1,"WD repeat-containing protein 91 WD40 domain, residues 392–747",SPR,,45 µM,,binding,45% and 33%
CCOc1ccc(NC(=O)O[C@@H](Cn2nc(C(C)C)cc2C(C)C)C(C)C)cc1,"Neuronal acetylcholine receptor subunit alpha-7 (CHRNA7, Homo sapiens, UniProt P36544)",two-electrode voltage clamp,Xenopus oocytes,"concentration not given, together with: ACh 1000 µM",,potentiation of ACh response,2 to 3 fold
COc1cc(/C=C/C(=O)C(=Cc2ccccc2)C(=O)/C=C/c2ccc(O)c(OC)c2)ccc1O,haemin,isothermal titration calorimetry,,"concentration not given, pH 7.4, 37 °C",,binding stoichiometry,1.27 ± 0.08
CCN(CCO)CCCC(C)Nc1ccnc2cc(Cl)ccc12 (centres unmarked),"Sodium channel protein type 5 subunit alpha (SCN5A, Homo sapiens, UniProt Q14524)","sodium current, whole-cell patch clamp",,"10 µM, without ATX-II",,half-inactivation voltage (V1/2),-75.8 mV and -83.7 mV and -92 mV
O=C1NC(=O)C(c2ccccc2)(c2ccccc2)N1,Glutamate receptor 2,"ion current, agonist, SyncroPatch patch clamp",HEK293,30 µM,,activation,4%
C=CC(=O)N1CCC(COCC(=O)N2CCN(c3nc(-c4cnc(N)nc4C(F)F)nc(N4CCOC[C@@H]4C)n3)CC2)CC1,"Receptor-interacting serine/threonine-protein kinase 4 (RIPK4, Homo sapiens, UniProt P57078)",KINOMEscan,,1 µM,,remaining binding,100%
COc1cc(Nc2nccc(-c3cnn4nc(OC)ccc34)n2)cc(C(F)(F)F)c1,"Homeodomain-interacting protein kinase 2 (HIPK2, Homo sapiens, UniProt Q9H2X6)",NanoBRET target engagement,live cells,"concentration not given, no binding",,binding,no binding
COC(=O)[C@@H]1[C@H]2C[C@H]3c4[nH]c5ccccc5c4CCN3C[C@@H]2CC[C@@H]1O,Genome polyprotein NS3 helicase domain,"DNA binding, inhibitor",hepatitis C virus,"100 µM, together with: Cy5-dT15 DNA",,inhibition,0%
CC1CCCN(C(=O)c2cc3ncccn3n2)C1 (centres unmarked),"SPRY domain-containing SOCS box protein 2, SPRY domain (Homo sapiens, UniProt Q99619)","binding, affinity selection mass spectrometry",,,relative to: other proteins in batch,log fold enrichment,-0.126
CC(C)NCC(O)COc1cccc2ccccc12 (centres unmarked),Glutamate receptor 2,"ion current, agonist, SyncroPatch patch clamp",HEK293,10 µM,,activation,4%
CCCCCCCCc1ccc(-c2ccc(C(=O)O)cc2)cc1,Genome polyprotein NS3 helicase domain,"DNA binding, inhibitor",hepatitis C virus,"100 µM, together with: Cy5-dT15 DNA",,inhibition,0%
CC[C@H](C)[C@H](NC(=O)[C@H](C)NC(=O)[C@H](CCSC)NC(=O)[C@H](C)NC(=O)[C@H](C)NC(=O)[C@H](Cc1ccc(O)cc1)NC(=O)[C@@H](NC(=O)[C@H](CCCCN)NC(=O)CNC(=O)[C@@H](NC(=O)[C@@H](NC(=O)[C@H](CCSC)NC(=O)[C@H](Cc1c[nH]cn1)NC(=O)CN)[C@@H](C)O)C(C)C)[C@@H](C)CC)C(=O)N[C@@H](CCSC)C(=O)N[C@@H](CCC(=O)O)C(=O)N[C@@H](Cc1ccc(O)cc1)C(=O)N[C@@H](Cc1ccc(O)cc1)C(=O)N[C@@H](CCCNC(=N)N)C(=O)N[C@@H](CCC(N)=O)C(=O)N[C@@H](CO)C(=O)N[C@@H](CCCCN)C(=O)N[C@@H](C)C(=O)N[C@@H](CCCCN)C(=O)N[C@@H](CCCCN)C(=O)N[C@@H](CC(C)C)C(=O)N[C@@H](CCC(N)=O)C(=O)N[C@@H](C)C(=O)N[C@@H](CCSC)C(=O)N[C@@H](CCCNC(=N)N)C(=O)O,CALM1 Ca2+-bound N-lobe,"binding, isothermal titration calorimetry",,"pH 7.4, 15 °C, N-lobe, CaV2.1 IQ domain, together with: Ca2+",,ΔS,19.4 ± 0.4 cal/mol/K
CCN1CCC[C@H]1CNC(=O)c1c(O)c(Cl)cc(Cl)c1OC,"G-protein coupled receptor 55 (GPR55, Homo sapiens, UniProt Q9Y2T6)","β-arrestin recruitment, TANGO luminescence",,concentration not given,relative to: basal luminescence,log2 fold change,0.101
CCCCCCCC(=O)c1c(O)cc(O)cc1CC(=O)OCC,"Nuclear receptor subfamily 4 group A member 3, ligand-binding domain (Homo sapiens, UniProt Q92570)","reporter gene, Gal4 hybrid reporter",,10 µM,relative to: vehicle,activation,0.98 fold
Nc1ncnc2c1ncn2[C@@H]1O[C@H](COP(=O)(O)CP(=O)(O)OP(=O)(O)O)[C@@H](O)[C@H]1O,"P2X purinoceptor 1 (P2RX1, Homo sapiens, UniProt P51575, E122A)",saturation binding,HEK293,52 nM,,specific binding,594 CCPM and 606 CCPM and 372 CCPM
CC(C)[C@H]1c2ccc(F)cc2CC[C@@]1(CCN(C)CCCc1nc2ccccc2[nH]1)OC(=O)C1CC1,Genome polyprotein NS3 helicase domain,"DNA binding, inhibitor",hepatitis C virus,"100 µM, together with: Cy5-dT15 DNA",,inhibition,1%
O=O,"Hypoxia-inducible factor 1-alpha inhibitor (HIF1AN, Homo sapiens, UniProt Q9NWT6, Y93A)","enzyme activity, substrate, rates, initial, MALDI-TOF MS",,"varied, pH 7.00, 37.0 °C, Y93A, together with: CTAD peptide 80 µM, 2-oxoglutarate 100 µM",,apparent kcat,0.683 ± 0.0833 s⁻¹

# Repeated from above:
SMILES,target,test,system,setting,how to read,quantity,value
COc1ccc(F)cc1C(=O)NCc1ccc(-c2nn([C@@H](C)C(F)(F)F)c(N)c2C(N)=O)cc1,"Fibroblast growth factor receptor 2 (FGFR2, Homo sapiens, UniProt P21802)","kinase activity, inhibitor, HotSpot radiometric",,"100 nM, together with: ATP 10 µM",,remaining activity,99.2 ± 0.6%
CC[C@H](C)[C@H](NC(=O)[C@H](CCC(=O)O)NC(=O)[C@H](CCC(=O)O)NC(=O)[C@@H]1CCCN1C(=O)[C@H](CC(=O)O)NC(=O)[C@H](C)NC(=O)[C@H](CCC(N)=O)NC(=O)[C@@H](NC(=O)[C@H](C)NC(=O)[C@@H](NC(=O)[C@H](CO)NC(=O)[C@@H](NC(=O)[C@H](CCCCN)NC(=O)[C@@H](N)Cc1ccc(O)cc1)[C@@H](C)O)C(C)C)[C@@H](C)O)C(=O)N[C@H](C(=O)N[C@H](C(=O)N[C@@H](CC(C)C)C(=O)N[C@@H](CC(=O)O)C(=O)N[C@@H](CC(=O)O)C(=O)N[C@@H](CC(=O)O)C(=O)N[C@@H](CC(=O)O)C(=O)O)C(C)C)[C@@H](C)CC,"Small ubiquitin-related modifier 2, N-terminally truncated (Homo sapiens, UniProt P61956, C48A)","binding, ITC",Tris buffer,"pH 7.4, ΔN-SUMO2",,-TΔS,-10.1 ± 0.1 kcal/mol
CN(C)CC[C@@H](c1ccc(Br)cc1)c1ccccn1,Genome polyprotein NS3 helicase domain,"DNA binding, inhibitor",hepatitis C virus,"100 µM, together with: Cy5-dT15 DNA",,inhibition,0%
C=C1CN(S(=O)(=O)c2ccc(C)cc2)CCCN(Cc2ccccc2)CCCN(S(=O)(=O)c2ccc(C)cc2)C1,"Protein transport protein Sec61 subunit alpha isoform 1 (Homo sapiens, UniProt P61619)",measured: control signal peptide-FLuc reporter,HEK293,"0.37 mM, 6 h",,FLuc/RLuc ratio,1.03
